Results gathered from unrelated publications.
Numbered parts are unrelated; each lists some results of a single study.

Series 1 — technique: protein binding microarray; molecule type: double-stranded DNA, one strand shown; matrix: in vitro; concentration: not given; relative to: not given; reading: higher = stronger binding
Target: Histone acetyltransferase KAT6A, winged helix 2, GST fusion (KAT6A, Homo sapiens, UniProt Q92794, residues 85-181)
Setting: 8-mer, flanks averaged, mean of 2 arrays, mostly near background
Target sequence (chain): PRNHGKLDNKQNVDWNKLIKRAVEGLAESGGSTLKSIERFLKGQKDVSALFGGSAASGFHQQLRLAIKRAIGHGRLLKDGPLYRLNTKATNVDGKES
`GAACGCGA` gave an E-score of 0.0586.
`AGTCTTTG` has an E-score of -0.194.
`GGCAGGCC` gave an E-score of 0.0998.
`GCATGGCA` gave an E-score of 0.182.
`ACTCCTCT` gave an E-score of -0.119.
With `AGGCAGAT` the E-score was 0.0675.
With `AGTTTTGC` the E-score was 0.056.
The E-score of `CATTAGTA` is reported as -0.129.
`ACAATCAC` gave an E-score of -0.0358.
With `CTTTTGAC` the E-score was -0.0608.
`GCCGTGCC` has an E-score of 0.182.
`CGTGATGC` gave an E-score of -0.0932.
`CCGTCGTC` gave an E-score of -0.0155.
With `ATTCGCCA` the E-score was 0.0316.
`ACGTGCTG` has an E-score of -0.0275.
`CGTCTTTA` gave an E-score of 0.0806.
`AGACGCGA` gave an E-score of 0.0804.
With `GACAGCTA` the E-score was -0.101.
`GCAATCGC` has an E-score of -0.0436.
The E-score of `GTTTAAAC` is reported as 0.182.
The E-score of `AATCTCTC` is reported as -0.034.
With `GCGGAGAA` the E-score was 0.138.
With `CAATTTGA` the E-score was 0.131.
For `CTCAATAA`, the E-score was -0.00814.
`CCCTGTCC` has an E-score of -0.0464.

Series 2 — technique: RNA Bind-n-Seq; molecule type: RNA; matrix: in vitro; concentration: 200 nM; setting: whole 134-nt RNA, ends assumed; together with: 150 mM LiCl; relative to: input library; reading: higher = stronger binding; all molecules: 7-deaza-guanosine replaces G
Target: Ras GTPase-activating protein-binding protein 1, full length (G3BP1, Homo sapiens, UniProt Q13283)
UniProt Q13283, sequence (whole entry, looked up): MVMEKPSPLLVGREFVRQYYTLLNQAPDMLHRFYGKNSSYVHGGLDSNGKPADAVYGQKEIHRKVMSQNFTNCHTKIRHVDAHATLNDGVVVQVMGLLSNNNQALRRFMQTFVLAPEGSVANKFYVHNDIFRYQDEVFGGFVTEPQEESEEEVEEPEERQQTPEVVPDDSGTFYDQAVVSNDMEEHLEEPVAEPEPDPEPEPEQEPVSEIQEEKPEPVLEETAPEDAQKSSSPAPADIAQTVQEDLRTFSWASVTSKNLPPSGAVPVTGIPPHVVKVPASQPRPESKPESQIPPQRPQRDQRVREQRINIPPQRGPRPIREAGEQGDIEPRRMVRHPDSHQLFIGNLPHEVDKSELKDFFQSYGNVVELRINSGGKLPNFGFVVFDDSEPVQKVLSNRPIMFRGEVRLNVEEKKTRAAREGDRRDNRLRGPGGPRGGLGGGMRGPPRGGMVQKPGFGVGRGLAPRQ
`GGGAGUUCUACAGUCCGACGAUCCCUGUGCUACACAUCGUAUGUACCGAAUCGGAAAAAAAGGGAAAAAAAGGAAAAAAAGGGAAAGUAUUAUGUUACGCCGUUCGGAUCUGCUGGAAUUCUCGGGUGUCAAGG` gave a log2 enrichment of -0.111.
The log2 enrichment of `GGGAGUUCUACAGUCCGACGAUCCUCAAGUCCUGUGCUACACAUCGUAUGUACCGAAUCGGAAGGAAGGGGAAGGGAAAGUAUUAUGUUACGCCGUUCGGAUCUGCACUUCCAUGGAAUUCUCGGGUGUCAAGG` is reported as -0.0659.
The log2 enrichment of `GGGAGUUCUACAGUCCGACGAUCCUCAAGUCCUGUGCUACACAUCGUAUGUACCGAAUCGGAAAAAGGUUUGGAGGAAAGUAUUAUGUUACGCCGUUCGGAUCUGCACUUCCAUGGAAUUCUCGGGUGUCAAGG` is reported as -0.308.
The log2 enrichment of `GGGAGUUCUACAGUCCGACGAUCGUCCUGUGCUACACAUCGUAUGUACCGAAUCGGGAAAAAAAGGGUGGGUUUUUUUGGGAAAGUAUUAUGUUACGCCGUUCGGAUCUGCACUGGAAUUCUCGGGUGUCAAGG` is reported as -0.886.
`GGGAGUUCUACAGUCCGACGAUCCACAGACAACACGCACCCACACAGACACAGAAGGAAGGGGUUGGGAUGGGGACAGGGUGCACAGCAGGGCGGGGUAGGACCCCAGCCCCUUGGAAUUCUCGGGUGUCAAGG` has a log2 enrichment of 0.254.
With `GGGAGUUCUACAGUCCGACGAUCCUGUGCUACACAUCGUAUGUACCGAAUCGGGUUUUUUUGGGGUUUUUUUGGUUUUUUUGGGAAAGUAUUAUGUUACGCCGUUCGGAUCUGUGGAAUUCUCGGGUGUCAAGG` the log2 enrichment was 1.22.
For `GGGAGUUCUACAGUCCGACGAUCUGGCCCUGGUGGCAUGCGGGGAGGAAGAGGUGGCCUCAUGGAUCAUGGUGGUCCCGGUGGAAUGUUCAGAGGUGGCCGUGGUGGAGACAGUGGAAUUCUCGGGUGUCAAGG`, the log2 enrichment was -0.0722.
With `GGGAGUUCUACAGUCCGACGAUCACCAUGCAGGUGGGCAUCUUUGGGAAGUGGGGCAAGGGGGGGAUAGGAAAGGGGGUAACACUUUGGGAACAGGUGGUCCCAGGUCGUUUCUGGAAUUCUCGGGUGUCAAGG` the log2 enrichment was 0.365.

Series 3 — technique: RNA Bind-n-Seq; molecule type: RNA; matrix: in vitro; concentration: 365 nM; relative to: no-protein control; reading: higher = stronger binding
Target: RNA binding protein fox-1 homolog 2, RRM domain, GST-SBP tag (RBFOX2, Homo sapiens, UniProt O43251-10, residues 100-194)
Setting: natural RNA segment, single round, ends assumed
Construct (chain): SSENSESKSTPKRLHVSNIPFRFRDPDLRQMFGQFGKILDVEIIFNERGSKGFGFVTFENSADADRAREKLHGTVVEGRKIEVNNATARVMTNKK
`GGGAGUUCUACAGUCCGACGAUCAGGAGGGCGAUGUGCGCCCUCUUUCACUUUUUUUCUUCUAGGUCUCCAGGUCCCGGAGGGGAUUUGUGGACCUCUCUUGUCUCCCCACCACUCCAGUGCAUUUCCGCCUGUGGAAUUCUCGGGUGCCAA`: “RBNS enrichment (R)” 0.572.
`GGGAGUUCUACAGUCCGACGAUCUCCUUAAUUCUGCUAGAGUUAACCUUGAGUUCAGAGCAGUAUUAAAUGCGUGCACUUUCAGGUCAGUACUGGGGACCAAGUACCCUCUGGUCUUUUGUGAAUGGAUGGUUUGGAAUUCUCGGGUGCCAA` — result for “RBNS enrichment (R)”: 0.74.
`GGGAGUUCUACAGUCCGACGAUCAAAGGUUCUGUUGGAGCUGAAUGUCAUGAUGUUUAUCAUCCAGCAAGCCCUCCUUCUCACAUAGCAACAGCAUCCACCUACAGAAGCAGCCCCUCAGUGUAGCCACUUCAUGGAAUUCUCGGGUGCCAA`: “RBNS enrichment (R)” 0.426.
Under “RBNS enrichment (R)”, `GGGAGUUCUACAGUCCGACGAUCUAGCUCGGACAGUGCAGUGGUGCACAUCAGCAACUUGUAUUUCUUCGGUGUUUGGCACGAGCACUGUCUCGCUGUGGCUGUGUGUCAUGAGAACUUACCAGCAGAAAUCCUGGAAUUCUCGGGUGCCAA` is recorded as 0.552.
For `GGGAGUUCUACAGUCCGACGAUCAUGAAGAACAAGGUGGUAUGAUCUUACUAUAUAAGAAAAACAAAACUUCAUUCUUGUGAGUCAUUUAAAUGUGUACAAUGUACACACUGGUACUUAGAGUUUCUGUUUUGUGGAAUUCUCGGGUGCCAA`, “RBNS enrichment (R)” read 0.286.
Under “RBNS enrichment (R)”, `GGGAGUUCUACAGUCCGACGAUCCAAAGGAGCGUCUCUGGCAGUCAAGAUAAAAAAACAGUUUCUAUUGUAUUUUGUGGAACUGUAUCUGUUGUCAUUUUUAAAAAGGGGGGAAAAGAUAACAUCCAAGUCUGUGGAAUUCUCGGGUGCCAA` is recorded as 0.774.
For `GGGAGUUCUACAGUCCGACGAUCAACUGAAGUUUGCAGAUUCGGAUGCUGACGGGGACUGAGGCCAGCGUGUCCCAGCCCAUGCCCCUCUGUCUUCGUGGAGAGUGUUGUGUUGAGCCCAUUCAGUAGCCGAGUGGAAUUCUCGGGUGCCAA`, “RBNS enrichment (R)” read 0.26.
`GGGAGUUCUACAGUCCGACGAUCCUUUUCUUUCUCACCCUCUUUGACCCAGAUUUUAUAGAGCGAGUUUCUCAACCUCUGCACAGUUGACAUUUUGAGCCAAAUUAUUCUUUGUUGUGGUAGGCAGUCCUGUGUGGAAUUCUCGGGUGCCAA`: “RBNS enrichment (R)” 0.808.

Series 4 — technique: universal PBM; molecule type: double-stranded DNA, one strand shown; matrix: in vitro; concentration: 600 nM; reading: higher = stronger binding
Target: Sal-like protein 4, full length isoform A (SALL4, Homo sapiens, UniProt Q9UJQ4, residues 1-1053)
UniProt Q9UJQ4, sequence (whole entry, looked up): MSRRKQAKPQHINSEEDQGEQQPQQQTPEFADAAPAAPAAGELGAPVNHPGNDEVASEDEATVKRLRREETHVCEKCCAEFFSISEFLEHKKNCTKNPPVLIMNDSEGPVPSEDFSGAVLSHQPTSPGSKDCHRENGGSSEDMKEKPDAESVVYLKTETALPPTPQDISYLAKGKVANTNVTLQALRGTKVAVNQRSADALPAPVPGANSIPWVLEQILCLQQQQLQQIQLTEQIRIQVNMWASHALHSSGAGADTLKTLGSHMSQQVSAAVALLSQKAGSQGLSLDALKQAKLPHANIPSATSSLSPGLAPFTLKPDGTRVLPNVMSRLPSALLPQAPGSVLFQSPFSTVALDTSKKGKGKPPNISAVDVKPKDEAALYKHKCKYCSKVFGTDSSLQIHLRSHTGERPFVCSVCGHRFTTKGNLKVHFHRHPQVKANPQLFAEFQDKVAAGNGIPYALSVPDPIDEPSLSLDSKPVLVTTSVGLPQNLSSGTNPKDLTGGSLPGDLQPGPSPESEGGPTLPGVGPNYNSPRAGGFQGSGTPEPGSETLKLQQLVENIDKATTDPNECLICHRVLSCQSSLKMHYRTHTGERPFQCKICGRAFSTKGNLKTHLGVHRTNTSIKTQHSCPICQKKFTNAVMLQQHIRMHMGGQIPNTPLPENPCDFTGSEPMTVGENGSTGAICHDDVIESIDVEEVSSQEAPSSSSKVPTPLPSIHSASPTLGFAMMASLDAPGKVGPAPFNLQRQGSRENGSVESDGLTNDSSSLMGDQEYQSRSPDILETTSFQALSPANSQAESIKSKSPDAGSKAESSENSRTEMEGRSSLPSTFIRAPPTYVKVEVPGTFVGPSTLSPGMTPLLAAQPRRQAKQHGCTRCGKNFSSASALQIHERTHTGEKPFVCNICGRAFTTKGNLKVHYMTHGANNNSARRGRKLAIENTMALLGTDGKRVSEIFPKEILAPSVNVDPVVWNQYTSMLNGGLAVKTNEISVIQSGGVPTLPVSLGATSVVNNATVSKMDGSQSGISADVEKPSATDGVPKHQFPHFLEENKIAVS
Setting: 8-mer, flanks averaged, mean of replicates
`ACCTACGT` gave an E-score of 0.00105.
For `GTAATCGA`, the E-score was 0.069.
`ACCGTAGA` has an E-score of 0.0517.
With `TATGCAAA` the E-score was 0.202.
The E-score of `ACTCACCC` is reported as -0.167.
With `CTCGCCTA` the E-score was -0.126.
`AGTCACCA` has an E-score of -0.0848.
`GCACGTGC` has an E-score of -0.0897.
The E-score of `ACTCGTGC` is reported as -0.0827.
The E-score of `AGTGATAG` is reported as 0.0694.
The E-score of `CCTAACAC` is reported as -0.0214.
With `GAGTAACC` the E-score was -0.0756.
For `TTAGTCAA`, the E-score was 0.147.
`ACGAACGA` has an E-score of 0.0547.
For `ATGCCGAG`, the E-score was -0.136.
With `TACACGGA` the E-score was 0.16.
`GCCCAGTA` has an E-score of -0.185.
With `GGCAACAA` the E-score was 0.029.
`CCAATACG` has an E-score of 0.0513.
`GTACAATA` has an E-score of 0.325.
With `AACCGTAA` the E-score was 0.0542.
The E-score of `TATAGGGA` is reported as 0.109.
The E-score of `GAGCGCCC` is reported as -0.388.
For `AAGTCAAA`, the E-score was 0.154.
The E-score of `AGCGCAAG` is reported as -0.144.
